Results collected from several papers.
Each line is one published result; not all experiments were run side by side. ± gives the spread as reported. ≈ marks a conversion by molar mass, not a printed value.
Sequence of UniProt Q9UIA9 (whole entry, looked up): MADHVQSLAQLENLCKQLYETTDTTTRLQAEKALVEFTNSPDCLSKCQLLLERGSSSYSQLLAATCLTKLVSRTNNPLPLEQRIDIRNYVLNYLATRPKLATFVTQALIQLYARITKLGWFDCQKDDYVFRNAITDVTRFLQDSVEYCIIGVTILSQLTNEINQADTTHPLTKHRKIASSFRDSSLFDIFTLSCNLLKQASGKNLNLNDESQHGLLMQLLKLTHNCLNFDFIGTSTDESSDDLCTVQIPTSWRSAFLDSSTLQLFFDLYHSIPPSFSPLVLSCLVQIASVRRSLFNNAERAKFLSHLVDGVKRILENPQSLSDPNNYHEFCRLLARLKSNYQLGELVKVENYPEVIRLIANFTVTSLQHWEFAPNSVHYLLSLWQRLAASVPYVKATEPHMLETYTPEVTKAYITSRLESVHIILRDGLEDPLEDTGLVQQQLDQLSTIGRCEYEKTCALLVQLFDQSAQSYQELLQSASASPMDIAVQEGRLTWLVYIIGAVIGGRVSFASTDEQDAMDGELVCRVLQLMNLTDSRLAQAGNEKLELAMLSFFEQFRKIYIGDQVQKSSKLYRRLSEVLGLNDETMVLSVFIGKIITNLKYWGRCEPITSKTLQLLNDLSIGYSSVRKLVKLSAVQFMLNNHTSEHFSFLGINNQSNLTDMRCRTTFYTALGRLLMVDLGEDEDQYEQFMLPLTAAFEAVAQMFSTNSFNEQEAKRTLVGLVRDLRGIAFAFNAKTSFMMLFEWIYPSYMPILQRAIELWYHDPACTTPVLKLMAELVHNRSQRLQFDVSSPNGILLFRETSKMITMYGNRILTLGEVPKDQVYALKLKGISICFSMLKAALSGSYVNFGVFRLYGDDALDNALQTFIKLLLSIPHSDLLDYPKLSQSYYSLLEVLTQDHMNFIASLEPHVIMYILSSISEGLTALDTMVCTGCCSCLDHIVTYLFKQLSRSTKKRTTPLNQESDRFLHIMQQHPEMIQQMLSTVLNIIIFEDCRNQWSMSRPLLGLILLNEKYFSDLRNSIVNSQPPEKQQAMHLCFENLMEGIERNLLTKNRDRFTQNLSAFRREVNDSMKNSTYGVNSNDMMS

| Compound | tested on | assay | test system | setting | how to read | quantity | result |
| --- | --- | --- | --- | --- | --- | --- | --- |
| CCCCN1[C@@H]2CC[C@H]1C[C@@H](OC(c1ccc(F)cc1)c1ccc(F)cc1)C2 | Plasmodium falciparum | – | GB4 | – | – | IC50 | 1260 nM |
| CS(=O)(=O)CCCn1c(Cn2c(=O)n(CC(F)(F)F)c3ccncc32)cc2cc(Cl)ccc21 | respiratory syncytial virus | RT-qPCR | hospitalized infants 1-24 months, nasal swab | oral, 9, 6 or 5 mg/kg daily, day 3, high dose by age cohort | relative to: baseline | LS mean viral load change | -2.24 log10 copies/mL |
| CC[C@H](C)[C@H](NC(=O)[C@H](C)NC(=O)[C@H](CCCCN)NC(=O)[C@H](CC(C)C)NC(=O)[C@H](C)NC(=O)[C@@H](NC(=O)[C@H](Cc1c[nH]cn1)NC(=O)[C@H](CC(C)C)NC(=O)[C@@H](NC(=O)[C@@H](NC(=O)[C@H](CCCCN)NC(=O)[C@H](C)NC(=O)[C@H](C)NC(=O)[C@H](CO)NC(=O)[C@H](CCCCN)NC(=O)[C@H](Cc1ccccc1)NC(=O)[C@@H](NC(=O)[C@H](CCCCN)NC(=O)[C@H](CC(C)C)NC(=O)[C@H](Cc1ccccc1)NC(=O)[C@H](CO)NC(=O)[C@H](CCCCN)NC(=O)[C@H](Cc1c[nH]c2ccccc12)NC(=O)[C@H](CCCCN)NC(C)=O)[C@@H](C)O)[C@@H](C)O)C(C)C)[C@@H](C)O)C(=O)N[C@@H](CO)C(=O)N[C@@H](CO)C(N)=O | Citrobacter | – | – | 20 strains | – | MBC90 | > 64 µg/mL |
| Nc1ncnc2c1ncn2[C@@H]1O[C@@H]2COP(=O)(O)O[C@H]3[C@@H](O)[C@H](n4cnc5c(=O)[nH]cnc54)O[C@@H]3COP(=O)(O)O[C@H]2[C@H]1O | West Nile virus | RNA sequencing Reactome analysis, item: Axon guidance (R-HSA-422475) | HFF-1 | concentration not given, downregulated pathways, added: West Nile virus infection | relative to: WNV-infected without compound | fold enrichment | 2.92 |
| C[C@H]1c2cccc(O)c2C(=O)C2=C(O)[C@]3(O)C(=O)C(C(N)=O)=C(O)[C@@H](N(C)C)[C@@H]3[C@@H](O)[C@@H]21 | Streptococcus pneumoniae | – | – | – | – | MIC90 | 8 µg/mL (≈ 18 µM) |
| CC(C)C(NC(=O)Cc1cccc2ccccc12)C(=O)Nc1cccc(C#N)c1 (stereo not drawn) | Plasmodium falciparum | parasite growth, SYBR Green | 3D7 wild type | 72 h | – | EC50 | 363 ± 66 nM |
| CC(C)[C@@H]1NC(=O)[C@@H](C(C)C)NC(=O)[C@H](C)NC(=O)[C@H](CO)NC(=O)[C@H](Cc2c[nH]c3ccccc23)NC(=O)[C@@H](Cc2ccc(O)cc2)NC(=O)[C@H](CCCN)NC(=O)[C@H](Cc2c[nH]c3ccccc23)NC1=O | Acanthamoeba castellanii | – | – | trophozoites | – | IC90 | > 16 µg/mL |
| OCCN1CCN(CC/C=C2/c3ccccc3Sc3ccc(C(F)(F)F)cc32)CC1 | Plasmodium falciparum | – | W2 | – | – | IC50 | 1260 nM |
| O=C(Nc1cccc(CN2CCN(C(=O)c3ccccc3)CC2)c1)c1cccs1 | Plasmodium falciparum | parasite growth, SYBR Green | 3D7 wild type | 72 h | – | EC50 | 302 ± 64 nM |
| CC(C)[C@@H]1NC(=O)[C@@H](CC(N)=O)NC(=O)[C@H](Cc2ccccc2)NC(=O)[C@@H](CCCN)NC(=O)[C@H](CCCN)NC(=O)[C@H]([C@@H](C)O)NC(=O)[C@@H](C(C)C)NC(=O)[C@H](C(C)C)NC(=O)[C@@H]([C@H](C)O)NC(=O)[C@@H](C(C)C)NC1=O | Naegleria fowleri | – | – | trophozoites | – | IC90 | > 16 µg/mL |
| CC(C)Oc1ccc(-c2nc(-c3cccc4c3CC[C@@H]4NCCO)no2)cc1C#N | Clostridioides difficile | – | ATCC 43255 | 45 µM, 1 h, spores | – | inhibition | ≥ 50% |
| O=C(NC(=O)c1c(F)cccc1F)Nc1ccc(Cl)cc1 | Ostrinia furnacalis | leaf dipping | – | 50 mg/L, 96 h | – | mortality | 33.3 ± 5.8% |
| CNC(=O)c1cc(Cl)cc(C)c1NC(=O)c1cc(Br)nn1-c1ncccc1Cl | Spodoptera litura | – | Brassica oleracea field | 25 ppm, 72 h, 5% water-dispersible granule | – | larval survival | 25.6% |
| C#Cc1cccc(C=NNC(=O)c2ccc(Br)cc2)c1O | Cryptococcus neoformans | – | H99 | unit not given, added: fluconazole | lower = more synergy | FICI | 1.67 |
| Cc1cc(Cl)cc(S(C)(=O)=O)c1NC(=O)c1cc(Br)nn1-c1ncccc1Cl | Spodoptera litura | leaf-dip | third instar larvae | 6.25 ppm, 48 h | – | mortality | 46.7% |
| C#Cc1ccc(O)c(C=NNC(=O)c2cc(Br)cc(Br)c2O)c1 | Cryptococcus neoformans | – | H99 | unit not given, added: amphotericin B | lower = more synergy | FICI | 4 |
| C[C@@H](O)[C@@H]1NC(=O)[C@H](Cc2ccccc2)NC(=O)[C@@H](Cc2ccccc2)NC(=O)[C@H]([C@@H](C)O)NC(=O)[C@@H](CCCN)NC(=O)[C@H](CCCN)NC(=O)[C@@H](CCCCN)NC1=O | Acanthamoeba castellanii | – | – | trophozoites | – | IC50 | > 16 µg/mL |
| CN(C)c1nc(NCc2cccc(F)c2)c(/N=N/c2ccc(Cl)cc2)c(N(C)C)n1 | Ostrinia furnacalis | leaf dipping | – | 200 mg/L, 96 h | – | mortality | 90% |
| C[C@@H](O)[C@H]1C(=O)N2C(C(=O)O)=C(S[C@@H]3CN[C@H](C(=O)N(C)C)C3)[C@H](C)[C@H]12 | Klebsiella pneumoniae | – | NDM-producing, neutropenic BALB/c mouse, thigh infection, thigh | dose not given, 2 h | – | bacterial burden, mean | 6.8 log10 CFU/thigh |
| C[C@@H]1CN(c2ccnc3ccc(Sc4ccc(Oc5ccccc5)cc4)cc23)C[C@H](C)N1.Cl | Plasmodium falciparum | parasite growth, SYBR Green | – | 72 h | relative to: 3D7-E182D over 3D7 | EC50 ratio | 1.1 |
| COC(=O)NC(=S)Nc1ccccc1NC(=S)NC(=O)OC | Botrytis cinerea | lesion diameter | B05.10, cucumber seedlings | spray, 3 days, 20 °C | – | EC95 | > 400 µg/mL |

| Compound | tested on | assay | test system | setting | how to read | quantity | result |
| --- | --- | --- | --- | --- | --- | --- | --- |
| Oc1ccc(-c2nc(N3CCN(c4ccccc4)CC3)no2)cc1 | Clostridioides difficile | spore germination | ATCC 43255 | 45 µM, 1 h | – | inhibition | 14 to 39% |
| CNCCCN1c2ccccc2CCc2ccccc21 | Plasmodium falciparum | – | 3D7 | – | – | IC50 | 10000 nM |
| COc1ccc(NC(=O)N2CCCCN3[C@H](CN(C)C)[C@H](c4ccc(C#Cc5ccccc5)cc4)[C@@H]3C2)cc1 | Cryptosporidium parvum | host cell invasion | – | concentration not given | relative to: vehicle | inhibition | 0.4 ± 20% |
| CC(C)[C@H]1NC(=O)[C@H](Cc2ccccc2)NC(=O)CNC(=O)[C@@H](Cc2c[nH]c3ccccc23)NC(=O)[C@H](CCCCN)NC(=O)[C@@H](CCCN)NC1=O | Naegleria fowleri | – | – | trophozoites | – | IC50 | > 16 µg/mL |
| Nc1nc(N)c2nc(-c3ccccc3)c(N)nc2n1 | Plasmodium falciparum | – | D10 | – | – | IC50 | 2510 nM |
| C[C@H]1CN(c2n[nH]c3nc(N[C@H]4CC[C@H](NS(=O)(=O)CCC(F)(F)F)CC4)ncc23)CCO1 | Exportin-7 (Homo sapiens, UniProt Q9UIA9) | Kinobeads competition, item: XPO7 | – | 0.16 µM, unit not given | relative to: vehicle | remaining binding | 1.11 |
| COc1ccccc1NC(=O)CSc1nc2cccnc2n1-c1ccccc1OC | Plasmodium falciparum | parasite growth, SYBR Green | 3D7 wild type | 72 h | – | EC50 | 414 ± 57 nM |
| CC(C)[C@@H]1NC(=O)[C@@H](CCCN)NC(=O)[C@H]([C@@H](C)O)NC(=O)[C@H](Cc2ccccc2)NC(=O)[C@@H](Cc2ccccc2)NC(=O)[C@H](Cc2ccccc2)NC(=O)[C@@H](CCCN)NC1=O | Acanthamoeba castellanii | – | – | trophozoites | – | IC50 | > 16 µg/mL |
| Cc1noc(-c2cccs2)c1C(=O)NCCc1cccc(Cl)c1 | Plasmodium falciparum | parasite growth, SYBR Green | 3D7 wild type | 72 h | – | EC50 | 234 ± 53 nM |
| Nc1nc2ccc(Oc3cccnc3)cc2s1 | Pseudomonas aeruginosa | swarming area | PA14-lux | 200 µM, 24 h | relative to: DMSO | swarming inhibition | 47.7% |
| CC(=O)N[C@H]1[C@@H](O[C@@H]2O[C@H](C[C@@H](O)[C@H]3O[C@@H](n4ccc(=O)[nH]c4=O)[C@H](O)[C@@H]3O)[C@H](O)[C@H](O)[C@H]2NC(=O)/C=C/CCCCCCCCCC(C)C)O[C@H](CO)[C@@H](O)[C@@H]1O | Candida glabrata | alamar blue | DSY565 (NR-51686) | – | – | MIC50 | 0.93 ± 0.055 µg/mL (≈ 1.12 µM) |
| CN[C@H](CC(C)C)C(=O)N[C@H]1C(=O)N[C@@H](CC(N)=O)C(=O)N[C@H]2C(=O)N[C@H]3C(=O)N[C@H](C(=O)N[C@H](C(=O)O)c4cc(O)cc(O)c4-c4cc3ccc4O)[C@H](O)c3ccc(c(Cl)c3)Oc3cc2cc(c3O[C@@H]2O[C@H](CO)[C@@H](O)[C@H](O)[C@H]2O[C@H]2C[C@](C)(N)[C@H](O)[C@H](C)O2)Oc2ccc(cc2Cl)[C@H]1O | Staphylococcus aureus MRSA NCTC 12493 | – | Galleria mellonella larvae | 10 mg/kg, titanium implant biofilm infection | – | survival | 80% |
| CC[C@H](C)[C@@H]1NC(=O)[C@@H]2CCCN2C(=O)[C@H](CC(C)C)NC(=O)[C@H](CC(C)C)NC(=O)CNC(=O)[C@@H](NC(=O)[C@@H](NC(=O)[C@H](CC(=O)O)NC(=O)CNC(=O)[C@@H](NC(=O)[C@H](C)NC(=O)CNC(=O)[C@H](CCCCN)NC(=O)[C@H](CC(C)C)NC(=O)[C@H](CC(C)C)NC(=O)[C@H](CCCCN)NC(=O)CNC(=O)[C@@H](NC(=O)[C@@H](N)CC(C)C)C(C)C)C(C)C)C(C)C)CSSC[C@@H](C(=O)O)NC1=O | – | RNA-seq, item: Lilra6 | mouse, traumatic brain injury model, frontal cortex and hippocampus | dose not given | relative to: TBI alone | log2 fold change | -3.15 |
| CC(C)[C@H]1NC(=O)[C@H](Cc2ccccc2)NC(=O)CNC(=O)[C@@H](Cc2ccccc2)NC(=O)[C@H](CCCCN)NC(=O)[C@@H](CCCNC(=N)N)NC1=O | Naegleria fowleri | – | – | trophozoites | – | IC90 | > 16 µg/mL |
| COc1cc(N[C@H](C(=O)c2c[nH]c3ccc(OC(F)(F)F)cc23)c2ccc(Cl)cc2OC)cc(S(C)(=O)=O)c1 | dengue virus 2 | viral infection, luciferase reporter virus | – | 0.1 nM, 48 h | – | inhibition | 88.3% |
| CC(=O)c1c(Cc2ccccc2Cl)c[nH]c1C | Plasmodium falciparum | parasite growth, SYBR Green | 3D7 wild type | 72 h | – | EC50 | 424 ± 170 nM |
| COc1c([N+](=O)[O-])oc2ccc3ccccc3c12 | Klebsiella pneumoniae | REMA | – | – | – | MIC90 | > 32 µg/mL |
| C[C@@H]1[C@H](O)[C@@H](C)/C=C/C=C/C=C/C=C/C=C/C=C/C=C/[C@H](O[C@@H]2O[C@H](C)[C@@H](O)[C@H](N)[C@@H]2O)C[C@@H]2O[C@](O)(C[C@@H](O)C[C@@H](O)[C@H](O)CC[C@@H](O)C[C@@H](O)CC(=O)O[C@H]1C)C[C@H](O)[C@H]2C(=O)O | Cryptococcus neoformans | – | Galleria mellonella larvae | 1 mg/kg single dose | – | median survival | 4 days |
| Cc1ccc2[nH]c3c(c2c1)CCCC3NCCc1cccc(Br)c1 (stereo not drawn) | Streptococcus pneumoniae | – | – | concentration not given, 10% fetal bovine serum | relative to: without serum | MIC fold change | 4 |
| NCCCC[C@H]1NC(=O)[C@H](CO)NC(=O)[C@H](Cc2ccccc2)NC(=O)[C@@H](Cc2ccccc2)NC(=O)[C@H](Cc2c[nH]c3ccccc23)NC(=O)[C@@H](CCCN)NC(=O)[C@H](CCCN)NC1=O | Acanthamoeba castellanii | – | – | trophozoites | – | IC50 | > 16 µg/mL |
| C#Cc1ccc(C=NNC(=O)c2ccc(COC)cc2)c(O)c1 | Cryptococcus neoformans | time-kill | H99 | concentration not given | – | time to complete kill | 3 h |
